Experimental data from different studies.
Compare with care: the assays were run in different laboratories. Values joined by “and” are separate records of one study, mostly repeats; a detail may differ. ± gives the spread as reported.
FPR2: N-formyl peptide receptor 2 (FPR2, Homo sapiens, UniProt P25090)
Sequence of UniProt P25090 (whole entry, looked up): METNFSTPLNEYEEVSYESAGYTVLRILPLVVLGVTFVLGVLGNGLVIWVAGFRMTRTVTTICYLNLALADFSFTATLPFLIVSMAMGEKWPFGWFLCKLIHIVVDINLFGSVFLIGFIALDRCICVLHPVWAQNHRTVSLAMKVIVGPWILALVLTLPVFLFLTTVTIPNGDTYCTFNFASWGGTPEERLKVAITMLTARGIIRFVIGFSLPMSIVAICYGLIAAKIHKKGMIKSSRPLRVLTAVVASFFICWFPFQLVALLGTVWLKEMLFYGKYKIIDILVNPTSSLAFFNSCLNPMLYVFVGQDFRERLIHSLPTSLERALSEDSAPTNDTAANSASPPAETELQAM
GRM1: Metabotropic glutamate receptor 1 (GRM1, Homo sapiens, UniProt Q13255)
Sequence of UniProt Q61143 (whole entry, looked up): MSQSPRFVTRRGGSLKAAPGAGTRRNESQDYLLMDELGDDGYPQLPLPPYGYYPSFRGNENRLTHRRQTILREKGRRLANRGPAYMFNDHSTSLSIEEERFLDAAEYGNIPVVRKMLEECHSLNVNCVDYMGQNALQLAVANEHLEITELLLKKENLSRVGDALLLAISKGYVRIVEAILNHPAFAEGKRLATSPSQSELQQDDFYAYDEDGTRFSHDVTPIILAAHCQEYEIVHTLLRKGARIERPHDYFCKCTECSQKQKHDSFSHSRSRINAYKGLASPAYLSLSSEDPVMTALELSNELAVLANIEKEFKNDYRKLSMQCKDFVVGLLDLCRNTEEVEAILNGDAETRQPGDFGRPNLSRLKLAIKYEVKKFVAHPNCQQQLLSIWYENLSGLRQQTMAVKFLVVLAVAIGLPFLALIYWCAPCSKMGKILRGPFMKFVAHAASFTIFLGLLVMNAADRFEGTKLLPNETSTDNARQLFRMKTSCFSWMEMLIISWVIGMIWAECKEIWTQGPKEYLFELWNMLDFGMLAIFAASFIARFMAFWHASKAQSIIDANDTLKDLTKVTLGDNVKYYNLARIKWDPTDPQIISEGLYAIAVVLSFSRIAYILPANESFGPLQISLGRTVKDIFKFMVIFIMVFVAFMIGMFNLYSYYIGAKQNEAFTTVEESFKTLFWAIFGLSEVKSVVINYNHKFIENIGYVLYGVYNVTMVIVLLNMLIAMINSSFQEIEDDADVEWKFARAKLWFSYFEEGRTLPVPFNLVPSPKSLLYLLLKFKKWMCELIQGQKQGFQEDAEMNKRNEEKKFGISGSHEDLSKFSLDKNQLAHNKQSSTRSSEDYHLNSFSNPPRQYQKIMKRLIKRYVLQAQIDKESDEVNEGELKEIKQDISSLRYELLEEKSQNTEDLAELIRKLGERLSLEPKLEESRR
Sequence of UniProt Q13255 (whole entry, looked up): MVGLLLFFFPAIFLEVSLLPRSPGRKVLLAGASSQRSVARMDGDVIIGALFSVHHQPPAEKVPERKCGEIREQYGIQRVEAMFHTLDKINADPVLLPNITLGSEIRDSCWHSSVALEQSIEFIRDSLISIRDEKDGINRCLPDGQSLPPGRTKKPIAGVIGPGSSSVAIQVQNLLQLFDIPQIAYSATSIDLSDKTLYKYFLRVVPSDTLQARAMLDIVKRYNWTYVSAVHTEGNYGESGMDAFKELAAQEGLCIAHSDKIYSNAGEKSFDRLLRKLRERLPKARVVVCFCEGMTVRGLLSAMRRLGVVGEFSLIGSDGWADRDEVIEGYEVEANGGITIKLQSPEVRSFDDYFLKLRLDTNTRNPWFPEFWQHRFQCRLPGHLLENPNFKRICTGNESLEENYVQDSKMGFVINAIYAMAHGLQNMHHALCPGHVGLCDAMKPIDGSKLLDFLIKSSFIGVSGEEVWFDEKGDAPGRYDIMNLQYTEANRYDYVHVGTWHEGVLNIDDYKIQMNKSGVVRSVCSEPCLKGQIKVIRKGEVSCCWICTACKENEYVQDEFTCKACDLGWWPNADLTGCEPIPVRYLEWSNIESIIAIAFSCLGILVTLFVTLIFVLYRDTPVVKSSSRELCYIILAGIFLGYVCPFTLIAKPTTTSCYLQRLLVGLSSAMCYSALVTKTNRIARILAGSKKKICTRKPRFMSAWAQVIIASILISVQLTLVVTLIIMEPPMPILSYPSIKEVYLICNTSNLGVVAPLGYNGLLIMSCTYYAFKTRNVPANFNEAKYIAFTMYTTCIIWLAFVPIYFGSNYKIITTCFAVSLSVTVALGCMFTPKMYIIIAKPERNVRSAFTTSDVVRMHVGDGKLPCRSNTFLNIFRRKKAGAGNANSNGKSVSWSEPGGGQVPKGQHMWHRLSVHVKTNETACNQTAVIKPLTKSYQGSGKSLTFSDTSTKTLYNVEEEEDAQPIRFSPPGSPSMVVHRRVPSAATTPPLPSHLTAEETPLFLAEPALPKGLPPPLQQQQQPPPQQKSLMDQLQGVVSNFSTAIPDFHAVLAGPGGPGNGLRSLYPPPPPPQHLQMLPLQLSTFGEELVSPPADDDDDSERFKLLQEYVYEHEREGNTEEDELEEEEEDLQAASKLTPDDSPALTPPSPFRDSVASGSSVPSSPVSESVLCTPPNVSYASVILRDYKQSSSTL
Sequence of UniProt P41594 (whole entry, looked up): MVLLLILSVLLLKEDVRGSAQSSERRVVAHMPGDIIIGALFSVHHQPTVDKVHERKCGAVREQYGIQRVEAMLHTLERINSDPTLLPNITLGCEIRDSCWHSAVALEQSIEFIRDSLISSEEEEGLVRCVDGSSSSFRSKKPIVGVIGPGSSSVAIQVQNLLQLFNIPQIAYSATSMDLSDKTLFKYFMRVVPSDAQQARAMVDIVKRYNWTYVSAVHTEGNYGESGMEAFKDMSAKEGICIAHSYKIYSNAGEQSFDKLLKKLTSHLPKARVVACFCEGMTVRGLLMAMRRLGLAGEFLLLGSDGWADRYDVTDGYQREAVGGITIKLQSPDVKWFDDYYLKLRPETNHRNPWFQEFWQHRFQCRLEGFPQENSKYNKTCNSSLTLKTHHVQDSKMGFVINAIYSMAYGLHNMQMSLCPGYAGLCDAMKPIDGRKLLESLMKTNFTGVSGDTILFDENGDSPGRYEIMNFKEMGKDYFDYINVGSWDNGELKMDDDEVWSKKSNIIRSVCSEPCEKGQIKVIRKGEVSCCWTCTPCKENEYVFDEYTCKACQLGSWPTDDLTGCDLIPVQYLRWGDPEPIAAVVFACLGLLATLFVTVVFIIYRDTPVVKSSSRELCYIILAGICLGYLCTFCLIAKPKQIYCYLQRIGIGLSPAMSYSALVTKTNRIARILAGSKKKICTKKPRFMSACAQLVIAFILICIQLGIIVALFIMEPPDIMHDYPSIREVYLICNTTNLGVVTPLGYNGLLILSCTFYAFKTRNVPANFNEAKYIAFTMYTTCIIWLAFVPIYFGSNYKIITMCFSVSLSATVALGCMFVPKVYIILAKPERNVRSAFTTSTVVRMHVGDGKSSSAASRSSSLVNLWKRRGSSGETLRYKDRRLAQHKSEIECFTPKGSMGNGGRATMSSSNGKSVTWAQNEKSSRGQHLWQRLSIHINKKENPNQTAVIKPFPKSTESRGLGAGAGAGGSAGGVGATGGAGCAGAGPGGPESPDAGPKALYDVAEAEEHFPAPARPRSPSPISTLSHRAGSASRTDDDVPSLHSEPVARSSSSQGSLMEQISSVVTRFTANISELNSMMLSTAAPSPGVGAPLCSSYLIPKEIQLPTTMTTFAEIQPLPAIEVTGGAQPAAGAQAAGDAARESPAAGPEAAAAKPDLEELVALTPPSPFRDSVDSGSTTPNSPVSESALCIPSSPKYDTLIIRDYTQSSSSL
Sequence of UniProt Q9R1W5 (whole entry, unmodified, looked up): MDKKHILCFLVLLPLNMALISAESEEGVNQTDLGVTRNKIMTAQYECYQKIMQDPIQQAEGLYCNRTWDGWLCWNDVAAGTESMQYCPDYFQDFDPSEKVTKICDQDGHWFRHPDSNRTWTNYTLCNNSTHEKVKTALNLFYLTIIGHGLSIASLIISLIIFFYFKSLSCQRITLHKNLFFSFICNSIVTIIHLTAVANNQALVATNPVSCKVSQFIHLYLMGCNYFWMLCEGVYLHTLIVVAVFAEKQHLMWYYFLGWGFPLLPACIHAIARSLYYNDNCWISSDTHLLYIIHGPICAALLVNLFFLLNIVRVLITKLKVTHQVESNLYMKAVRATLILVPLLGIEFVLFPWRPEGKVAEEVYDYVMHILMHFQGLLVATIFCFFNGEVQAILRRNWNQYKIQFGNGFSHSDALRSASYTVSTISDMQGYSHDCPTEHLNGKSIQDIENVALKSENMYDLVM
Sequence of UniProt P21453 (whole entry, looked up): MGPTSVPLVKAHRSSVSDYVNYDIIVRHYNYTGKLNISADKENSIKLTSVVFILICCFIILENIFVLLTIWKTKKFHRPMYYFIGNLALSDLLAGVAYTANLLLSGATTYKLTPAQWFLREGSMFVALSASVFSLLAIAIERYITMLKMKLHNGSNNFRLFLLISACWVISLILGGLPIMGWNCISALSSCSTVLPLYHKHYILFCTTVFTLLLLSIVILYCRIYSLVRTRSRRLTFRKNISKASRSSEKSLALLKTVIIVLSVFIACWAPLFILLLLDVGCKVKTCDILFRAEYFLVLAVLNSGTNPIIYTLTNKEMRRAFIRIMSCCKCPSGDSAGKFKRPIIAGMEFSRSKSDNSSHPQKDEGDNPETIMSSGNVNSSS
Sequence of UniProt Q99500 (whole entry, looked up): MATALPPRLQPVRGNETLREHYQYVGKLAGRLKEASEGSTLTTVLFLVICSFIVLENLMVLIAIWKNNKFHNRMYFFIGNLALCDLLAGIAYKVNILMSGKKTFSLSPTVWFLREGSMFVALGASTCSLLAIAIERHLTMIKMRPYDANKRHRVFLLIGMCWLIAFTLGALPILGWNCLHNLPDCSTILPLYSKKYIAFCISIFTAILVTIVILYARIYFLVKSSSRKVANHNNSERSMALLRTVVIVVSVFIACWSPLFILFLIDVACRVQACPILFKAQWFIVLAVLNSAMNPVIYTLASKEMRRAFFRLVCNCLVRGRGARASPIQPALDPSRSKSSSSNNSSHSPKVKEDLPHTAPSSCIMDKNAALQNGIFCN

Structure (SMILES) = Nc1ncnc2c1nc(NCCCCCCNC(=O)C[C@H](NC(=O)c1ccc(C3(C(F)(F)F)N=N3)cc1)C(=O)NCCCOCCOCCOCCCNC(=O)CCCC[C@@H]1SC[C@@H]3NC(=O)N[C@@H]31)n2[C@@H]1O[C@@H]2COP(=O)(O)O[C@H]2[C@H]1O; target = PRKAR1A (Homo sapiens, UniProt P10644); assay = activator; EC50 = 25.8 nM
Structure (SMILES) = CCc1nc(-c2ccc(-c3ccc(CCC(N)(CO)COP(=O)(O)O)cc3)cc2)co1 (stereo not drawn); target = S1PR3 (Homo sapiens, UniProt Q99500); assay = β-arrestin recruitment, agonist; EC50 = > 5000 nM
Structure (SMILES) = O=C(Cc1ccc([N+](=O)[O-])cc1)N[C@@H](Cc1c[nH]c2ccccc12)C(=O)NCC1(c2ccccn2)CCCCC1; target = FPR2; assay = calcium mobilization, agonist; system = HL-60 cells expressing FPR2; EC50 = 17400 ± 5200 nM
Structure (SMILES) = CCCCOc1nc(N)c2[nH]c(=O)n(CCCN(CCCN3CCOCC3)Cc3cccc(CC(=O)O)c3)c2n1; target = Toll-like receptor 7 (Rattus norvegicus, UniProt A5H2Z9); assay = reporter gene, agonist; system = HEK293 NF-kB SEAP reporter; EC50 = > 10000 nM
Structure (SMILES) = O=P(O)(O)O[C@@H]1[C@@H](OP(=O)(O)O)[C@H](OP(=O)(O)O)[C@@H](O)[C@@H](OP(=O)(O)O)[C@H]1OP(=O)(O)O; target = COI1/TIFY10A, with JAZ1 (Arabidopsis thaliana, UniProt O04197+Q9LMA8); assay = binding, cofactor; setting = COI1-ASK1 with JAZ1, added: 100 nM 3H-coronatine; EC50 = 27 nM
Structure (SMILES) = O=P(O)(O)O[C@@H]1[C@@H](O)[C@H](O)[C@H](O)[C@H](O)[C@H]1OP(=O)(O)O; target = Itpr1 (Rattus norvegicus, UniProt P29994); assay = calcium signal, agonist; EC50 = 7590 nM
Structure (SMILES) = Cc1cccc(-c2ccc([C@@H]3[C@@H](CO)N4CCCCN(S(=O)(=O)c5ccccc5C(F)(F)F)C[C@@H]34)cc2)c1C; target = IDE (Homo sapiens, UniProt P14735); EC50 = 1 nM
Structure (SMILES) = O=C(Nc1ccc(N2C(=O)c3ccc(Cl)cc3C2=O)c(Cl)c1)c1ncccc1Cl; target = GRM1; assay = calcium mobilization, positive allosteric modulator; system = T-REx-293; setting = added: glutamate EC20; EC50 = 1840 nM
Structure (SMILES) = C[N+](C)(CF)CC(=O)O; target = TMA lyase; assay = TMA production, ex vivo; system = Proteus mirabilis, wild type; EC50 = 320000 nM
Structure (SMILES) = COc1cc(-c2cnc3nc2NCCCNS(=O)(=O)c2cc(ccc2O)N3)ccc1F; target = ABL1 (Homo sapiens, UniProt P00519); assay = target engagement in cells, BRET; EC50 = 17000 nM
Structure (SMILES) = C[N+](C)(CCl)CCO; target = TMA lyase; assay = TMA production, ex vivo; system = Proteus mirabilis, wild type; EC50 = 45 nM
Structure (SMILES) = CCc1nc(-c2ccc(-c3ccc(CCC(N)(CO)CO)cc3)cc2)co1; target = S1PR5 (Homo sapiens, UniProt Q9H228); assay = β-arrestin recruitment, agonist; EC50 = 291 nM
Structure (SMILES) = CCCCCCCOc1ccc(CC[C@](N)(CO)COP(=O)(O)O)cc1C(F)(F)F; target = S1PR1 (Homo sapiens, UniProt P21453); assay = calcium signal, agonist; EC50 = 0.075 nM
Structure (SMILES) = O=C(c1cc2c(s1)CCCCC2)N1CCC(n2c(=O)[nH]c3ccccc32)CC1; target = Trpc6 (Mus musculus, UniProt Q61143); assay = ion current, agonist, patch clamp; EC50 = 780 nM and ~1000 nM
Structure (SMILES) = CC[C@H](C)[C@H](NC(=O)[C@@H]1CCCN1C(=O)CNC(=O)[C@H](Cc1ccccc1)NC(=O)[C@H](CC(N)=O)NC(=O)[C@H](CC(N)=O)NC(=O)[C@H](CO)NC(=O)[C@H](CO)NC(=O)[C@H](Cc1c[nH]cn1)NC(=O)[C@@H](NC(=O)[C@H](CC(C)C)NC(=O)[C@H](Cc1ccccc1)NC(=O)[C@H](CC(N)=O)NC(=O)[C@H](C)NC(=O)[C@H](CC(C)C)NC(=O)[C@H](CCCNC(=N)N)NC(=O)[C@H](CCC(N)=O)NC(=O)[C@@H](NC(=O)[C@H](C)NC(=O)[C@@H]1CSSC[C@H](NC(=O)[C@@H](N)CCCCN)C(=O)N[C@@H](CC(N)=O)C(=O)N[C@@H]([C@@H](C)O)C(=O)N[C@@H](C)C(=O)N[C@@H]([C@@H](C)O)C(=O)N1)[C@@H](C)O)C(C)C)C(=O)N[C@@H](CC(C)C)C(=O)N1CCC[C@H]1C(=O)N1CCC[C@H]1C(=O)N[C@H](C(=O)N[C@@H](CC(N)=O)C(=O)N[C@H](C(=O)NCC(=O)N[C@@H](CO)C(=O)N[C@@H](CC(N)=O)C(=O)N[C@H](C(=O)N[C@@H](Cc1ccc(O)cc1)C(N)=O)[C@@H](C)O)C(C)C)[C@@H](C)O; target = Calcrl/Ramp2 (Mus musculus, UniProt Q9R1W5+Q9WUP0, P10T); assay = cAMP production, agonist; system = COS-7, transfected; setting = 15 min, 37 °C, added: IBMX 1 mM; EC50 = 324 nM
Structure (SMILES) = C[N+](C)(CF)CCO; target = TMA lyase; assay = TMA production, ex vivo; system = Proteus mirabilis, wild type; EC50 = 56 nM
Structure (SMILES) = CSCC[C@H](NC(=O)[C@H](CCCNC(=N)N)NC(=O)[C@H](CCCCN)NC(=O)[C@@H](N)Cc1c[nH]c2ccccc12)C(=O)N[C@H](C(=O)N[C@H](CCSC)C(N)=O)C(C)C; target = FPR2; assay = binding, competitor; system = RBL; setting = 4 °C, added: 5 nM WK(FL)YMVm; EC50 = 705 nM
Structure (SMILES) = C[N+](C)(CCl)CC(=O)O; target = TMA lyase; assay = TMA production, ex vivo; system = Proteus mirabilis, wild type; EC50 = 81000 nM
Structure (SMILES) = CC[C@H](C)[C@H](NC(=O)[C@H](CCC(=O)O)NC(=O)[C@H](CCC(=O)O)NC(=O)[C@@H](NC(=O)[C@H](C)NC(=O)[C@H](CC(N)=O)NC(=O)[C@H](CC(N)=O)NC(=O)[C@H](CC(=O)O)NC(=O)[C@@H](NC(=O)[C@H](CC(C)C)NC(=O)[C@@H](C)NC(=O)[C@@H](N)[C@@H](C)O)[C@@H](C)CC)[C@@H](C)O)C(=O)N[C@@H](CC(C)C)C(=O)N[C@@H](Cc1ccc(O)cc1)C(=O)O; target = GPR37 (Homo sapiens, UniProt O15354); assay = β-arrestin recruitment, agonist, luciferase; EC50 = 19.4 nM
Structure (SMILES) = COc1cccc(Cc2cc(CCC(=O)NCCNc3cccc4c(S(=O)(=O)O)cccc34)nn(CC(=O)Nc3ccc(Br)cc3)c2=O)c1; target = FPR2; assay = calcium mobilization, agonist; system = HL-60 transfected with target; EC50 = 1400 ± 700 nM
Structure (SMILES) = O=C(Nc1ccc(N2C(=O)c3cccc(Cl)c3C2=O)c(Cl)c1)c1ccccn1; target = GRM1; assay = positive allosteric modulator; EC50 = 75 nM
Structure (SMILES) = O=C(NCc1ccncc1)Nc1ccc(S(=O)(=O)N2CC3CCC(C2)O3)cc1; target = Nampt (Mus musculus, UniProt Q99KQ4); EC50 = 2750 nM
Structure (SMILES) = Cc1ccc(Oc2cc(C(=O)NC3CC(F)C3)nc3ccsc23)cn1 (stereo not drawn); target = GRM5 (Homo sapiens, UniProt P41594); assay = calcium signal, agonist; EC50 = > 30000 nM
Structure (SMILES) = Nc1ncnc2c1ncn2[C@@H]1O[C@H](CO)[C@@H](O[C@H]2O[C@H](CO)[C@@H](OP(=O)(O)O)[C@H](OP(=O)(O)O)[C@H]2O)[C@H]1O; target = Itpr1 (Rattus norvegicus, UniProt P29994, del318-332/R568Q); assay = Ca2+ release; system = DT40, permeabilized; EC50 = 257 nM

Repeated from above:
Structure (SMILES) = CCCCOc1nc(N)c2[nH]c(=O)n(CCCN(CCCN3CCOCC3)Cc3cccc(CC(=O)O)c3)c2n1; target = Toll-like receptor 7 (Rattus norvegicus, UniProt A5H2Z9); assay = reporter gene, agonist; system = HEK293 NF-kB SEAP reporter; EC50 = > 10000 nM
Structure (SMILES) = O=P(O)(O)O[C@@H]1[C@@H](OP(=O)(O)O)[C@H](OP(=O)(O)O)[C@@H](O)[C@@H](OP(=O)(O)O)[C@H]1OP(=O)(O)O; target = COI1/TIFY10A, with JAZ1 (Arabidopsis thaliana, UniProt O04197+Q9LMA8); assay = binding, cofactor; setting = COI1-ASK1 with JAZ1, added: 100 nM 3H-coronatine; EC50 = 27 nM
Structure (SMILES) = O=P(O)(O)O[C@@H]1[C@@H](O)[C@H](O)[C@H](O)[C@H](O)[C@H]1OP(=O)(O)O; target = Itpr1 (Rattus norvegicus, UniProt P29994); assay = calcium signal, agonist; EC50 = 7590 nM
